Measurements from different studies.
Compare with care: the assays were run in different laboratories. “And” joins repeats or separate records; there may be more than shown. ± marks the error that the study gave.
DDB1/DCAF12: DDB1/DCAF12 (Homo sapiens, UniProt Q16531+Q5T6F0)
Chain of UniProt Q5T6F0 (whole entry, looked up): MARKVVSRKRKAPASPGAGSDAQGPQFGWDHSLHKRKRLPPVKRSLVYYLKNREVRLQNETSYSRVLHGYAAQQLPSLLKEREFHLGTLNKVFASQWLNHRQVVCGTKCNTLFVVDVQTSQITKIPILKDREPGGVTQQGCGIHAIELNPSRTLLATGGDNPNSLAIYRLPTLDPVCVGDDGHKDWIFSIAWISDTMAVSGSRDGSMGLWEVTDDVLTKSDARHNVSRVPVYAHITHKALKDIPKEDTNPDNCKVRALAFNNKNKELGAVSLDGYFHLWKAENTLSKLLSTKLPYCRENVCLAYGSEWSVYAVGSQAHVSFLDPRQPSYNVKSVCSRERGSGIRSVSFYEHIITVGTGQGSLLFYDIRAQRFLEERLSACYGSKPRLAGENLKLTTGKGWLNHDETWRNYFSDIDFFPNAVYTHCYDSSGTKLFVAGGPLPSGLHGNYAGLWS
Chain of UniProt Q16531 (whole entry, looked up): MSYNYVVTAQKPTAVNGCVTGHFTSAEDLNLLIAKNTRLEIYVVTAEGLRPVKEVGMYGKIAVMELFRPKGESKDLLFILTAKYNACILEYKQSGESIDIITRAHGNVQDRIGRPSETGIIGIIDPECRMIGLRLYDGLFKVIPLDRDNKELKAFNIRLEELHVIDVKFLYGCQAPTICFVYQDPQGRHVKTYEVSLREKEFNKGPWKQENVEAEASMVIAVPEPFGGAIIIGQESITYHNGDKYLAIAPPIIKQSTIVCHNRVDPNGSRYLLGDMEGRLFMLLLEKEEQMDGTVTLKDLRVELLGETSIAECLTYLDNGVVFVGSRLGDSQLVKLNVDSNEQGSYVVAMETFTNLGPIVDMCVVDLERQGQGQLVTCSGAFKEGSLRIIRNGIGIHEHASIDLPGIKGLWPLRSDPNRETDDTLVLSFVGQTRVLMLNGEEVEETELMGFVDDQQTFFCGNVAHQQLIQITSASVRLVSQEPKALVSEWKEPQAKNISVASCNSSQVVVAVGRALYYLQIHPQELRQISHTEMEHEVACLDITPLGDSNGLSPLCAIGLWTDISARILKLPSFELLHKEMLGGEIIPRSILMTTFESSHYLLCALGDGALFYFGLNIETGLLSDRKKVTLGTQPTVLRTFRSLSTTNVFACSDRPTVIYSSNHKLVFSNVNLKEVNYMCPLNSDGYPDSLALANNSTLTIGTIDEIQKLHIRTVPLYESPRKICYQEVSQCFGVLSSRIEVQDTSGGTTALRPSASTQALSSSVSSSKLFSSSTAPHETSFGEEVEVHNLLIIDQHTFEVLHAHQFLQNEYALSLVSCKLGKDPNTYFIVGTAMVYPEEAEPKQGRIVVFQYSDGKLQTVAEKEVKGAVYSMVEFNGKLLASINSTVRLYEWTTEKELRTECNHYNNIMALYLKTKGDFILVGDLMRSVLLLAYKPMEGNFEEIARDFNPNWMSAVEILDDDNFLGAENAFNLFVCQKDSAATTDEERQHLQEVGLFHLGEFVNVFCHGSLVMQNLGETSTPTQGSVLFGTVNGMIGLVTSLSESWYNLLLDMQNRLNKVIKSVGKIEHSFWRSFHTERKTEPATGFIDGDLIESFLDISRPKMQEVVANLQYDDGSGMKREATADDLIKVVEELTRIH
Genome polyprotein NS2B-NS3 protease: Genome polyprotein, NS2B-NS3 protease (ZIKV, UniProt A0A024B7W1)
Tripartite terminase subunit 3 C-terminal nuclease domain: Tripartite terminase subunit 3, C-terminal nuclease domain (Human betaherpesvirus 5, UniProt P16732)
Chain of UniProt P63096 (whole entry, looked up): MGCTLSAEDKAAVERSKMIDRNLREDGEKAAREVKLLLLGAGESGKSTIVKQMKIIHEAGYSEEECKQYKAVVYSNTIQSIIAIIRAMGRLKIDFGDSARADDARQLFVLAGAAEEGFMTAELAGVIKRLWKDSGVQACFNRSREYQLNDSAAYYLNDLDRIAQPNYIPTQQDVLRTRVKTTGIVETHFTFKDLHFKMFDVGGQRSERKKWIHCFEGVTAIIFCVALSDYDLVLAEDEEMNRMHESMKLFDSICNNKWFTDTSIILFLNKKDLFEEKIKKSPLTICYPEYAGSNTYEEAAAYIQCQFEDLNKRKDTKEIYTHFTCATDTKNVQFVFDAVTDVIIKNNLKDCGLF
Chain of UniProt P16732 (whole entry, looked up): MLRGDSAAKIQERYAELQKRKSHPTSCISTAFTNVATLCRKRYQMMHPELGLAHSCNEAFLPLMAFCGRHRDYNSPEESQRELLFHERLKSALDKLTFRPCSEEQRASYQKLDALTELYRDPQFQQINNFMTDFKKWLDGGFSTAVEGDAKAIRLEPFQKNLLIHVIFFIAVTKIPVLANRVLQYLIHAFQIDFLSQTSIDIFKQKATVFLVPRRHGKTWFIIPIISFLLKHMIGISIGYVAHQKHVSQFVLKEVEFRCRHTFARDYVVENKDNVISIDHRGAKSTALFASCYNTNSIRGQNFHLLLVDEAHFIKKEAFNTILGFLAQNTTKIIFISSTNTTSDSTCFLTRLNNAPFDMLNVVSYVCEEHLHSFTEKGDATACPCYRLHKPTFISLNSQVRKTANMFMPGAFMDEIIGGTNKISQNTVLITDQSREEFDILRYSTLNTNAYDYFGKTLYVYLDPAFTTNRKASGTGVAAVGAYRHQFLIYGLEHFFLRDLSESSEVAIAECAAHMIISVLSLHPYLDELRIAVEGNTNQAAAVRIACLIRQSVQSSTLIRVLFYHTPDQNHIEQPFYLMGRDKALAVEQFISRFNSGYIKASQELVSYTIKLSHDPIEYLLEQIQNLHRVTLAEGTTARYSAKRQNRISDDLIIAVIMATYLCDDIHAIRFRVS
Chain of UniProt P30542 (whole entry, looked up): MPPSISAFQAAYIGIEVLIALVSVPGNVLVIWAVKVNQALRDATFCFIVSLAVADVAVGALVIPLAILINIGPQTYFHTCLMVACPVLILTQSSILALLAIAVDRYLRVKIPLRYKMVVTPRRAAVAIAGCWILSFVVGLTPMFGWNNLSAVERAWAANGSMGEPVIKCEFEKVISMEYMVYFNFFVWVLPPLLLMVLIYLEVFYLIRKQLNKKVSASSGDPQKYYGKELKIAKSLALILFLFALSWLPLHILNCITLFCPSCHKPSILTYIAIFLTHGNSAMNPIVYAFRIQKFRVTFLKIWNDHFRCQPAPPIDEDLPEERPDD
Chain of UniProt Q96CP6 (whole entry, looked up): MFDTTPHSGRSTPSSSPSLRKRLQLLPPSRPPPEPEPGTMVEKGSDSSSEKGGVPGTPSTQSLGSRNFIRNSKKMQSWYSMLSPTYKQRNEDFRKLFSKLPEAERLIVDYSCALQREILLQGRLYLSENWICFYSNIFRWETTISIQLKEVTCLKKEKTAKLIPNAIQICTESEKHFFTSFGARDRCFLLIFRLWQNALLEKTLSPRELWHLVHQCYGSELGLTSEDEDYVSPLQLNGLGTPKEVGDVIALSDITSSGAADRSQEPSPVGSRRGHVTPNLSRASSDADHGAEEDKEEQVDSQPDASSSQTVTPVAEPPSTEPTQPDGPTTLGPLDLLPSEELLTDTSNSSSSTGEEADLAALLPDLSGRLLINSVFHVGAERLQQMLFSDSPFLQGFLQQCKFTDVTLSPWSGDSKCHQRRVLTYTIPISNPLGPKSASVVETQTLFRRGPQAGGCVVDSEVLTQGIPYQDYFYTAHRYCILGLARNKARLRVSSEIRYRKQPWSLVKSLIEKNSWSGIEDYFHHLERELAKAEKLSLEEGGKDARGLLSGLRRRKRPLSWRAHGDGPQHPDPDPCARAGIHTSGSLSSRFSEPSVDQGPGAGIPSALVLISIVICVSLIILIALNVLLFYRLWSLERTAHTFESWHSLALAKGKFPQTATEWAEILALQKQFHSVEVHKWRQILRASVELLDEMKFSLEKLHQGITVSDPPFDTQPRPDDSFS
Chain of UniProt Q02768 (whole entry, looked up): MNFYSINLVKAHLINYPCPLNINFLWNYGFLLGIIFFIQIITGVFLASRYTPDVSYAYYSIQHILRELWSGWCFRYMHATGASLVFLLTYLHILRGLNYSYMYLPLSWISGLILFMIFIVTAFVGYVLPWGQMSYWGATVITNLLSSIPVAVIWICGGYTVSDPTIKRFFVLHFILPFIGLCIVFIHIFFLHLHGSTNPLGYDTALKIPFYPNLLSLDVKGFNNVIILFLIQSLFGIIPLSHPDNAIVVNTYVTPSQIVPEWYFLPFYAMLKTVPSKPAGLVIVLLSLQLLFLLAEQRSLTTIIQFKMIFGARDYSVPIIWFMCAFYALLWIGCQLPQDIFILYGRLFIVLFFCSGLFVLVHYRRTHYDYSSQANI
Chain of UniProt Q07343 (whole entry, looked up): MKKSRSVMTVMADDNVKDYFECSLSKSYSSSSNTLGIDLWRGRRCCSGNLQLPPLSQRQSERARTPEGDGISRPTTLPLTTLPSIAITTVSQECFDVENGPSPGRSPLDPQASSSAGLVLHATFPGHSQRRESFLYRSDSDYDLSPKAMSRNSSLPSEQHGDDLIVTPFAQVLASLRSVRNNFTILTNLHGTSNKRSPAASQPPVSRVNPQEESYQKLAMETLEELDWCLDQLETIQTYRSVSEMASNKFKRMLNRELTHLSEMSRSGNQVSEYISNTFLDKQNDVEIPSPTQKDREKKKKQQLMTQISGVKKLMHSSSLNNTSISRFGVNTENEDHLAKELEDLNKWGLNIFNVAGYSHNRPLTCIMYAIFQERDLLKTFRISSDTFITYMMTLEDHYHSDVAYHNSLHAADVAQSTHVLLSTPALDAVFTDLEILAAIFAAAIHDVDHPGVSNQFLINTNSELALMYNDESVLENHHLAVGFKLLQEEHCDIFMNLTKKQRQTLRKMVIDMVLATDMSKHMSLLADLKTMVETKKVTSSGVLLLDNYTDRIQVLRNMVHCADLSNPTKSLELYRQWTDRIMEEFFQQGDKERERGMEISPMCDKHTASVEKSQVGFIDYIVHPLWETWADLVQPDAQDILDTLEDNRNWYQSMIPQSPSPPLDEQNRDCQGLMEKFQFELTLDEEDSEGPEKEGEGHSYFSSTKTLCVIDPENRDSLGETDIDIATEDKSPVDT
Chain of UniProt P39155 (whole entry, looked up): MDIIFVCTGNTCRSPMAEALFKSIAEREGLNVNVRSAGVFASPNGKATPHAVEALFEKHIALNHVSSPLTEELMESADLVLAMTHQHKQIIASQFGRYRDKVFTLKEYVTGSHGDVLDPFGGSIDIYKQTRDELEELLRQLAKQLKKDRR

N=C(N)NN — IC50 (polyamine oxidase (rat); inhibitor; ischemic brain homogenate; together with: spermine): 400 µM
Nc1ncnc2c1ncn2[C@@H]1O[C@@H]2COP(=O)(O)O[C@H]3[C@@H](O)[C@H](n4cnc5c(=O)[nH]cnc54)O[C@@H]3COP(=O)(O)O[C@H]2[C@H]1O — pathway fold enrichment (HFF-1; RNA sequencing, measured: ECM proteoglycans; downregulated pathway; reference: Zika virus alone): 9.37
NCCCC[C@H](N)C(=O)N1CCC[C@H]1C(=O)NCC(=O)N[C@@H](CCC(=O)O)C(=O)N[C@@H](CO)C(=O)N[C@@H](CCC(=O)O)C(=O)N[C@@H](CCC(=O)O)C(=O)O — IC50 (DDB1/DCAF12; binding, TR-FRET competition): 4.96 µM
CCC(C(=O)Nc1cc(NC2CCNC2)ccc1C)n1cc(Br)cc2nc(SCc3ccc(F)cc3)nc1-2 (stereo not drawn) — IC50 (USP1 (Homo sapiens, UniProt O94782); enzyme activity): > 100 µM
C[C@@H]1CC[C@H]2[C@@H](C)C(=O)O[C@@H]3O[C@@]4(C)CC[C@@H]1[C@]32OO4 — IC50 (MT-CYB, bc1 complex (Plasmodium falciparum, UniProt Q02768); enzyme activity, inhibitor): > 1 µM
CC[C@H](C)[C@H](NC(=O)[C@@H](N)CC(=O)O)C(=O)N[C@@H](CCCNC(=N)N)C(=O)N[C@@H](CCCCN)C(=O)N1CCC[C@H]1C(=O)NCC(=O)N[C@@H](CCC(=O)O)C(=O)N[C@@H](CO)C(=O)N[C@@H](CCC(=O)O)C(=O)N[C@@H](C)C(=O)O — IC50 (DDB1/DCAF12; binding, TR-FRET competition): 6.21 µM
[Cu+2] — IC50 (Protein-arginine-phosphatase (ywlE, Bacillus subtilis, UniProt P39155)): 5.8 ± 0.1 µM
Oc1ccc2c3c1O[C@H]1c4[nH]c5c(c4C[C@@]4(O)[C@@H](C2)N(CC2CC2)CC[C@]314)C[C@@]1(O)[C@H]2Cc3ccc(O)c4c3[C@@]1(CCN2CC1CC1)[C@H]5O4 — IC50 (Apical membrane antigen 1 (Plasmodium falciparum, UniProt Q7KQK5); AMA1-RON2L binding, AlphaScreen; 3D7; together with: 25 nM each protein): 20 µM
Nc1c2c(nc3c1C(c1cccc([N+](=O)[O-])c1)c1ccc(OCC(=O)c4ccc(Cl)cc4)cc1O3)CCCC2 (stereo not drawn) — IC50 (APP (Homo sapiens, UniProt P05067); Aβ42 self-aggregation, inhibitor, thioflavin T fluorescence): 2.85 µM
Cc1cc(C)c2sc(NC(=O)c3ccc(Br)o3)nc2n1 — IC50 (Genome polyprotein NS2B-NS3 protease; inhibitor): 66 ± 3 µM
CC(C)C[C@H](NC(=O)[C@@H](NC(=O)[C@H](C)NC(=O)[C@@H](NC(=O)CN)C(C)C)C(C)C)C(=O)N[C@@H](CC(=O)O)C(=O)N[C@@H](CC(N)=O)C(=O)O — IC50 (Protein cereblon, with DDB1 (CRBN, Homo sapiens, UniProt Q96SW2); binding, ligand, TR-FRET displacement): 5.3 µM
CC1CCCN(CCCNC(=O)c2cc(Sc3ccc(F)cc3)nc3ccccc23)C1 (stereo not drawn) — maximum response (Vero-E6; CellTiter-Glo ATP; 72 h, retest 8-point duplicates; reference: DMSO 0%, hyamine -100%, more negative, more toxic): -1.86%
COc1cc(CCC[P+](c2ccccc2)(c2ccccc2)c2ccccc2)c(OC)c2c1OCO2.[I-] — LC50 (TK-10; SRB): > -4 log M
COc1cc(Nc2ncc(F)c(Nc3ccc4c(n3)NC(=O)C(C)(C)O4)n2)cc(OC)c1OC — IC50 (ADORA1 (Homo sapiens, UniProt P30542)): > 10 µM
O=C(c1ccc(OCCN2CCCCC2)cc1)c1c(-c2ccc(O)cc2)sc2cc(O)ccc12 — IC50 (Phospholipase D2 (Homo sapiens, UniProt O14939); enzyme activity, inhibitor; human cells): 17.7 µM
NCCOCC(=O)N1CCCC(C(=O)NCc2nc(-c3ccc(-c4ccc(F)cc4)cc3)cs2)C1 (stereo not drawn) — IC50 (20S proteasome (Plasmodium falciparum, UniProt A0A5K1K7U1+Q8I261+Q8IJT1); without WLW-vs, together with: Succ-LLVY-AMC 20 µM): 0.072 µM
CCc1c(C)nc(-c2ccc(Cl)s2)nc1Nc1ccc(CC(=O)O)cc1 — IC50 (3',5'-cyclic-AMP phosphodiesterase 4D, isoform PDE4D7 (PDE4D, Homo sapiens, UniProt Q08499, S190D/S715A/S717A/Q730L); cAMP hydrolysis, NADH-coupled fluorescence): 0.021 µM
C#CCCCCCCn1nc(OC)oc1=O — IC50 (Uncharacterized hydrolase SAUSA300_2518 (Staphylococcus aureus, UniProt Q2FDS6); enzyme activity, inhibitor; USA300; 1 h preincubation, enzyme 0.5 nM, together with: 20 µM 4-MU octanoate): > 50 µM
C[C@H]1CN(c2n[nH]c3nc(N[C@H]4CC[C@H](NS(=O)(=O)CCC(F)(F)F)CC4)ncc23)CCO1 — IC50 (Protein Aster-A (Homo sapiens, UniProt Q96CP6); biochemical): ≥ 20 µM
COc1cc2c(Oc3ccc4[nH]c(C)cc4c3F)ccnc2cc1OCC1(N)CC1 — grade 1 or 2 Triglyceride elevation (paediatric recurrent refractory sarcoma; concentration not given, whole group): 20.6%
CC[C@H](C)[C@H](NC(=O)[C@H](Cc1ccccc1)NC(=O)[C@H](CCC(=O)O)NC(=O)[C@H](CCCNC(=N)N)NC(=O)[C@H](C)NC(=O)[C@H](C)NC(=O)[C@H](CCC(N)=O)NC(=O)[C@H](CCC(=O)O)NC(=O)[C@H](CCC(=O)O)NC(=O)[C@H](CC(C)C)NC(=O)[C@H](Cc1ccc(O)cc1)NC(=O)[C@H](CO)NC(=O)[C@H](CO)NC(=O)[C@@H](NC(=O)[C@H](CC(=O)O)NC(=O)[C@H](CO)NC(=O)[C@@H](NC(=O)[C@H](Cc1ccccc1)NC(=O)[C@@H](NC(=O)CNC(=O)[C@H](CCC(=O)O)NC(=O)[C@H](C)NC(=O)CCc1c[nH]cn1)[C@@H](C)O)[C@@H](C)O)C(C)C)C(=O)N[C@@H](C)C(=O)N[C@@H](Cc1c[nH]c2ccccc12)C(=O)N[C@@H](CC(C)C)C(=O)N[C@H](C(=O)N[C@@H](CCCNC(=N)N)C(=O)NCC(=O)N[C@@H](CCCNC(=N)N)C(=O)N[C@@H](CCCCNC(=O)COCCOCCNC(=O)COCCOCCNC(=O)CC[C@H](NC(=O)CCCCCCCCCCCCCCCCC(=O)O)C(=O)O)C(=O)NCC(=O)NCC(=O)N[C@@H](CO)C(=O)N[C@@H](CCCCNc1c(NCCCCCN(O)C(=O)CCC(=O)NCCCCCN(O)C(=O)CCC(=O)NCCCCCN(O)C(C)=O)c(=O)c1=O)C(=O)O)C(C)C [zirconium-89 labelled] — tissue uptake (rat, muscle; iv, 3 nmol/kg, 4 h, ex vivo): 0.12 %ID/g
C[C@@H](O)[C@@H](CO)NC(=O)[C@@H](CCCNC(=N)N)NC(=O)[C@@H]1CCCN1C(=O)[C@@H]1CSSC[C@H](NC(=O)[C@H](Cc2ccccc2)NC(=O)CN2CCN(CC(=O)O)CCN(CC(=O)O)CCN(CC(=O)O)CC2)C(=O)N[C@@H](Cc2ccc(O)cc2)C(=O)N[C@@H](Cc2ccccc2)C(=O)N[C@@H](CCC(N)=O)C(=O)N[C@@H](CC(N)=O)C(=O)N1 [gallium-68 labelled] — tissue uptake (Wistar rat, healthy, sublingual gland; intravenous, 8 MBq, 120 min): 0.19 %ID/g
Cc1nc(Nc2ccc(CC(=O)O)cc2)nc(Nc2ccc(F)c(C(F)(F)F)c2)c1C — IC50 (PDE4B (Homo sapiens, UniProt Q07343); enzyme activity, inhibitor): 201 ± 122 µM
Nc1nnc(S)[nH]1 — IC50 (Histone acetyltransferase RTT109, with Vps75 (Saccharomyces cerevisiae, UniProt Q07794); enzyme activity, inhibitor, HTS, CPM-based, dose response): > 125 µM
CC[C@H](C)[C@H](NC(=O)[C@@H](N)CC(=O)O)C(=O)N[C@@H](CCCNC(=N)N)C(=O)N[C@@H](CCCCN)C(=O)N1CCC[C@H]1C(=O)N[C@@H](C)C(=O)N[C@@H](CCC(=O)O)C(=O)N[C@@H](CO)C(=O)N[C@@H](CCC(=O)O)C(=O)N[C@@H](CCC(=O)O)C(=O)O — IC50 (DDB1/DCAF12; binding, TR-FRET competition): 0.1 µM
CC[C@H](C)[C@@H]1NC(=O)[C@@H]2CCCN2C(=O)[C@H](CC(C)C)NC(=O)[C@H](CC(C)C)NC(=O)CNC(=O)[C@@H](NC(=O)[C@@H](NC(=O)[C@H](CC(=O)O)NC(=O)CNC(=O)[C@@H](NC(=O)[C@H](C)NC(=O)CNC(=O)[C@H](CCCCN)NC(=O)[C@H](CC(C)C)NC(=O)[C@H](CC(C)C)NC(=O)[C@H](CCCCN)NC(=O)CNC(=O)[C@@H](NC(=O)[C@@H](N)CC(C)C)C(C)C)C(C)C)C(C)C)CSSC[C@@H](C(=O)O)NC1=O — log2 fold change (RNA-seq, measured: Rnf5; mouse, traumatic brain injury model, frontal cortex and hippocampus; dose not given; reference: TBI alone): -0.808
Cc1sc2[nH]c(=O)n(O)c(=O)c2c1C — IC50 (Tripartite terminase subunit 3 C-terminal nuclease domain; endonuclease activity, inhibitor; together with: dsDNA substrate): 1.6 ± 0.09 µM
O=C1c2c(O)c(=O)ccn2N([C@@H]2c3ccccc3SCc3c2ccc(F)c3F)[C@@H]2COCCN12 — trough concentration (BALB/c mouse; subcutaneous, 0.125 mg/kg q12h): 0.394 ng/mL
CCCCc1cc2c(cc1C(=C1CC1)c1ccc(C(=O)O)cc1)C(C)(C)CCC2(C)C — IC50 (RXRA (Homo sapiens, UniProt P19793); binding; together with: [3H]9-cis-retinoic acid): 0.45 µM
Nc1nc2c(ncn2[C@@H]2O[C@H](COP(=O)(O)OP(O)(O)=S)[C@@H](O)[C@H]2O)c(=O)[nH]1 — IC50 (Guanine nucleotide-binding protein G(i) subunit alpha-1, with Gbeta and Ggamma (GNAI1, Homo sapiens, UniProt P63096); G protein dissociation, TruPATH BRET; wild-type MOR with Gαi1): 0.0455 µM and 0.0335 µM and 0.0385 µM
COc1ncccc1-c1cnn2ccc(N3CCN(C(=O)OC(C)C)CC3)nc12 — IC50 (NR3C1 (Homo sapiens, UniProt P04150); liability screen): > 150 µM
O=c1[nH]c2scc(-c3ccc(Cl)cc3)c2c(=O)n1O — IC50 (Tripartite terminase subunit 3 C-terminal nuclease domain; endonuclease activity, inhibitor; together with: dsDNA substrate): 0.23 ± 0.07 µM
O=C(c1ccc(Cl)cc1)N1CCN2C(=O)N(OC(=O)N3CCOc4ccccc43)C(=O)C2C1 (stereo not drawn) — median protein ratio (Hepatic triacylglycerol lipase (Homo sapiens, UniProt P11150); MS-based ABPP; SW-620 conditioned medium; 10 µM, 1 h, 37 °C; reference: compound over DMSO, lower = more inhibition): 1.14
O=C(O)C[C@H](NC(=O)[C@H](CC(=O)O)NC(=O)[C@H](CC(=O)O)NC(=O)[C@H](CC(=O)O)NC(=O)[C@H](CC(=O)O)NC(=O)[C@H](CC(=O)O)NC(=O)[C@H](CC(=O)O)NC(=O)[C@H](CC(=O)O)NC(=O)[C@H](CC(=O)O)NC(=O)[C@H](CC(=O)O)NC(=O)[C@H](CC(=O)O)NC(=O)[C@H](CCCCNC(=O)c1ccc(C(=O)NCCOCCOB2BBBBBB3BBBB3B2)cc1)NC(=O)CN1CCN(CC(=O)O)CCN(CC(=O)O)CCN(CC(=O)O)CC1)C(=O)O [gallium-67 labelled] — tissue uptake (ddY male mice, brain; intravenous, 37 kBq, 1 h): 0.02 %ID/g
CN(C)c1ccc(-c2nc(-c3cccs3)c(-c3cccs3)[nH]2)cc1 — maximum response (Vero-E6; CellTiter-Glo ATP; 72 h, retest 8-point duplicates; reference: DMSO 0%, hyamine -100%, more negative, more toxic): -20%
Cc1cc(C)c2sc(NC(=O)c3ccco3)nc2n1 — IC50 (Genome polyprotein NS2B-NS3 protease; inhibitor): 63 ± 1 µM
